# Experimental data pooled from the literature.
# Protocols differ between the studies behind these lines. ± gives the spread as reported.
SMILES,test,system,setting,tissue uptake [%ID/g]
C[C@H](O)[C@@H](NC(=O)[C@H]1CCCN1C(=O)[C@@H](CCCCN)NC(=O)[C@@H](CO)NC(=O)[C@@H](Cc1ccc(O)cc1)NC(=O)[C@@H](CC(N)=O)NC(=O)CCOCCOCCOCCNC(=O)CN1CCN(CC(=O)O)CCN(CC(=O)O)CCN(CC(=O)O)CC1)C(=O)N[C@H](CC(=O)O)C(=O)N[C@H](CCCNC(=N)N)C(=O)N[C@H](CCC(N)=O)C(=O)N[C@H](Cc1ccc(O)cc1)C(=O)N[C@H](Cc1c[nH]cn1)C(=O)N[C@H](Cc1ccccc1)C(N)=O [copper-64 labelled],,"C57BL/6J mice, thymus","intravenous, 1.85 MBq, 0.3333 h, radiolabelled",0.72 ± 0.17
CN1Cc2cc(Cl)ccc2-n2c(nnc2C2CCN(c3cccc([18F])n3)CC2)C1,,"C57BL/6 mouse male, brain","intravenous, 3.7 MBq, 5 min",0.77 ± 0.06
CC[C@H](C)[C@H](NC(=O)[C@H](CCCNC(=N)N)NC(=O)[C@H](CCCCN)NC(=O)[C@H](Cc1ccc(O)cc1)NC(=O)[C@H](CC(=O)O)NC(=O)[C@H](C)NC(=O)CNC(=O)CCOCCOCCOCCNC(=O)CN1CCN(CC(=O)O)CCN(CC(=O)O)CCN(CC(=O)O)CC1)C(=O)N[C@H](C(=O)N[C@H](C(=O)N[C@@H](CCCCN)C(=O)N[C@H](C(=O)N[C@@H](CC(N)=O)C(N)=O)C(C)C)C(C)C)[C@@H](C)O [copper-64 labelled],ex vivo gamma counting,"C57BL/6J male mice, B16-F10 tumour, heart","intravenous, 1.85 MBq, 40 min",0.795 ± 0.016
CSCC[C@H](NC(=O)CNC(=O)[C@H](CCCCN)NC(=O)[C@H](CC(C)C)NC(=O)[C@@H]1CCCN1C(=O)[C@H](CO)NC(=O)[C@H](Cc1c[nH]cn1)NC(=O)[C@H](Cc1c[nH]c2ccccc12)NC(=O)[C@H](CCCNC(=N)N)NC(=O)[C@H](CC(C)C)NC(=O)[C@H](CCCNC(=N)N)NC(=O)[C@H](Cc1c[nH]c2ccccc12)NC(=O)[C@H](CS)NC(=O)CCCCCNC(=O)CN1CCN(CC(=O)O)CCN(CC(=O)O)CCN(CC(=O)O)CC1)C(=O)O [copper-64 labelled],ex vivo biodistribution,"male C57BL/6J mice, spleen","intravenous, 1.85 MBq, 18 h, B16-F10 tumour-bearing",1.33
CC[C@H](C)[C@H](NC(=O)[C@H](CCCCN)NC(=O)CNC(=O)[C@H](CC(C)C)NC(=O)[C@H](Cc1ccccc1)NC(=O)[C@H](CCCCN)NC(=O)[C@H](CO)NC(=O)[C@H](Cc1ccccc1)NC(=O)[C@H](Cc1c[nH]c2ccccc12)NC(=O)[C@H](CCC(N)=O)NC(=O)[C@@H](NC(=O)[C@H](Cc1ccccc1)NC(=O)CCCCCNC(=O)CN1CCN(CC(=O)O)CCN(CC(=O)O)CCN(CC(=O)O)CC1)C(C)C)C(=O)N[C@@H](CCC(=O)O)C(=O)N1CCC[C@H]1C(=O)N[C@@H](CC(=O)O)C(=O)N[C@H](C(=O)N[C@@H](CO)C(=O)N[C@@H](CCC(N)=O)C(=O)N[C@H](C(=O)N[C@@H](CCC(N)=O)C(=O)N[C@@H](CC(=O)O)C(=O)N1CCC[C@H]1C(=O)N[C@@H](CC(N)=O)C(=O)N[C@@H](CC(=O)O)C(=O)N[C@@H](CCC(N)=O)C(=O)N[C@@H](Cc1ccc(O)cc1)C(=O)N[C@@H](CCC(=O)O)C(=O)N1CCC[C@H]1C(=O)N[C@@H](Cc1ccccc1)C(=O)O)C(C)C)C(C)C [copper-64 labelled],,"C57BL/6 mice, male, naive, brown fat",1 h,2.2 ± 0.2
CC[C@H](C)[C@H](NC(=O)[C@H](CCCNC(=N)N)NC(=O)[C@H](CCCCN)NC(=O)[C@H](Cc1ccc(O)cc1)NC(=O)[C@H](CC(=O)O)NC(=O)[C@H](C)NC(=O)CNC(=O)CCOCCOCCOCCNC(=O)CN1CCN(CC(=O)O)CCN(CC(=O)O)CCN(CC(=O)O)CC1)C(=O)N[C@H](C(=O)N[C@@H](CC(C)C)C(=O)N[C@@H](CCCCN)C(=O)N[C@H](C(=O)N[C@@H](CC(N)=O)C(N)=O)C(C)C)[C@@H](C)O [copper-64 labelled],ex vivo gamma counting,"C57BL/6J male mice, B16-F10 tumour, blood","intravenous, 1.85 MBq, 100 min",0.32 ± 0.081
CC(C)C[C@@H](NC(=O)[C@@H](CCCNC(=N)N)NC(=O)[C@@H](Cc1c[nH]cn1)NC(=O)[C@@H](Cc1c[nH]c2ccccc12)NC(=O)[C@@H](Cc1c[nH]cn1)NC(=O)[C@@H](Cc1ccccc1)NC(=O)[C@H](NC(=O)[C@@H](Cc1ccc(O)cc1)NC(=O)CNC(=O)CNC(=O)CCOCCOCCOCCNC(=O)CN1CCN(CC(=O)O)CCN(CC(=O)O)CC1)[C@H](C)O)C(=O)N[C@H](CC(N)=O)C(=O)N1CCC[C@@H]1C(=O)O [gallium-68 labelled],gamma counting,"C57BL/6 mice, male, spleen","intravenous, 1.85 MBq, 30 min",1.97 ± 0.41
CCCC[C@H]1C(=O)N(C)[C@@H](CCCC)C(=O)N[C@@H](CCCNC(=O)CN2CCN(CC(=O)O)CCN(CC(=O)O)CCN(CC(=O)O)CC2)C(=O)N[C@H](C(=O)NCC(N)=O)CSCC(=O)N[C@@H](Cc2ccc(O)cc2)C(=O)N(C)[C@@H](C)C(=O)N[C@@H](CC(N)=O)C(=O)N2CCC[C@H]2C(=O)N[C@@H](Cc2c[nH]cn2)C(=O)N[C@@H](CC(C)C)C(=O)N(C)CC(=O)N[C@@H](Cc2c[nH]c3ccccc23)C(=O)N[C@@H](CO)C(=O)N[C@@H](Cc2c[nH]c3ccccc23)C(=O)N1C [gallium-68 labelled],,"NOD/SCID mice with CHO-hPD-L1 xenograft, liver",60 min post injection,12.6 ± 1.06

# Excerpt of the above:
SMILES,test,system,setting,tissue uptake [%ID/g]
CC(C)C[C@@H](NC(=O)[C@@H](CCCNC(=N)N)NC(=O)[C@@H](Cc1c[nH]cn1)NC(=O)[C@@H](Cc1c[nH]c2ccccc12)NC(=O)[C@@H](Cc1c[nH]cn1)NC(=O)[C@@H](Cc1ccccc1)NC(=O)[C@H](NC(=O)[C@@H](Cc1ccc(O)cc1)NC(=O)CNC(=O)CNC(=O)CCOCCOCCOCCNC(=O)CN1CCN(CC(=O)O)CCN(CC(=O)O)CC1)[C@H](C)O)C(=O)N[C@H](CC(N)=O)C(=O)N1CCC[C@@H]1C(=O)O [gallium-68 labelled],gamma counting,"C57BL/6 mice, male, spleen","intravenous, 1.85 MBq, 30 min",1.97 ± 0.41
